# Measurements of several laboratories.
# Each line is one published result; not all experiments were run side by side.
SMILES,assay,test system,conditions,how to read,measurement,result
CC[C@H](C)[C@H](NC(=O)[C@H](Cc1ccc(O)cc1)NC(=O)[C@@H]1CCCN1C(=O)[C@H](CCCNC(=N)N)NC(=O)[C@@H](N)CCCNC(=N)NC(=O)NCCOCCOCCNC(=O)CCCCCN1/C(=C/C=C/C=C/C2=[N+](CCCCS(=O)(=O)[O-])c3ccccc3C2(C)C)C(C)(C)c2ccccc21)C(=O)N[C@@H](CC(C)C)C(=O)O,"stable, RP-HPLC",PBS,"up to 48 h, pH 7.4, 22 °C",,stability,stable
CSCC[C@H](NC(=O)[C@H](CCCCN)NC(=O)[C@H](CCCNC(=N)N)NC(=O)[C@H](CO)NC(=O)[C@H](Cc1c[nH]c2ccccc12)NC(=O)[C@H](CCCNC(=N)N)NC(=O)[C@H](CC(C)C)NC(=O)[C@H](N)CC(C)C)C(=O)N1CCC[C@H]1C(=O)N[C@@H](CS)C(=O)N[C@H](C(=O)N[C@@H](CO)C(=O)O)C(C)C,,human plasma,,time remaining stable,stability,> 8 h
C#Cc1nc(C(=O)N2CCC(NC(=O)c3cnc(-c4ccccc4)s3)(c3nc4ccccc4n3C)CC2)cs1,,phosphate-buffered saline,without DTT,,stability time,> 4 h
CN1[C@H]2CC[C@@H]1[C@@H](C(=O)O)[C@@H](OC(=O)c1ccccc1)C2,,rat whole blood,"500 nM, 4 months, -80 °C",,stability bias,9.3%
O=C(O)CCC(CP(=O)(O)O)C(=O)O (stereo not shown),,rat plasma,"4 h, room temperature",,stability,stable
Cc1sc2c(c1C)C(c1ccc(Cl)cc1)=N[C@@H](CC(=O)OC(C)(C)C)c1nnc(C)n1-2,,10% HP-β-cyclodextrin with DMSO,"5 mg/mL, 4 °C",,stability in dosing formulation,7 days
COC(=O)[C@@H]1[C@H]2CC[C@@H](C[C@@H]1O)N2C,,rat whole blood,"500 nM, 4 freeze-thaw cycles",,stability bias,5.58%
CNc1cc[n+](CC(=O)Nc2ccc3c(c2)ncn3-c2c(C)noc2C)cc1.O=C[O-],,glutathione,,,stability,stable
CC(=O)Oc1ccc2c3c1O[C@H]1[C@@H](OC(C)=O)C=C[C@H]4[C@@H](C2)N(C)CC[C@@]341,,rat whole blood,"500 nM, 4 freeze-thaw cycles",,stability bias,-7.75%
CC[C@H](C)[C@H](NC(=O)[C@H](Cc1ccc(O)cc1)NC(=O)[C@@H]1CCCN1C(=O)[C@H](CCCNC(=N)N)NC(=O)[C@@H](N)CCCNC(=N)NC(=O)NCCCCNC(=O)CCCCCN1/C(=C/C=C/C=C/C2=[N+](CCCCS(=O)(=O)[O-])c3ccccc3C2(C)C)C(C)(C)c2cc(S(=O)(=O)O)ccc21)C(=O)N[C@@H](CC(C)C)C(=O)O,"stable, RP-HPLC",PBS,"up to 48 h, pH 7.4, 22 °C",,stability,stable
